Published values gathered from unrelated publications.
Every numbered part comes from another study and shows a few of its results, in no order.
Sequence of UniProt O14733 (whole entry, looked up): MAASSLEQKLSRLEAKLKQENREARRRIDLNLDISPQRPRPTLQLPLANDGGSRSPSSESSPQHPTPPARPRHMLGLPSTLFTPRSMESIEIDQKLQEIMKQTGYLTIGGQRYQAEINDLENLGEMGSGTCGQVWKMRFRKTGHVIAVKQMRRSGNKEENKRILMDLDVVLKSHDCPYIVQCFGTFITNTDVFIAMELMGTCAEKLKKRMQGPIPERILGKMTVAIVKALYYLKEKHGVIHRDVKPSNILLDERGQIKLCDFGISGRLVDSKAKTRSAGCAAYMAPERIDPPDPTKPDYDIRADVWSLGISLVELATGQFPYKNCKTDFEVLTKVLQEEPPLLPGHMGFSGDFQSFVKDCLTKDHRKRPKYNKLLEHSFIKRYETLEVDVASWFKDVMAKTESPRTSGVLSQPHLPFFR
Sequence of UniProt P42336 (whole entry, unmodified, looked up): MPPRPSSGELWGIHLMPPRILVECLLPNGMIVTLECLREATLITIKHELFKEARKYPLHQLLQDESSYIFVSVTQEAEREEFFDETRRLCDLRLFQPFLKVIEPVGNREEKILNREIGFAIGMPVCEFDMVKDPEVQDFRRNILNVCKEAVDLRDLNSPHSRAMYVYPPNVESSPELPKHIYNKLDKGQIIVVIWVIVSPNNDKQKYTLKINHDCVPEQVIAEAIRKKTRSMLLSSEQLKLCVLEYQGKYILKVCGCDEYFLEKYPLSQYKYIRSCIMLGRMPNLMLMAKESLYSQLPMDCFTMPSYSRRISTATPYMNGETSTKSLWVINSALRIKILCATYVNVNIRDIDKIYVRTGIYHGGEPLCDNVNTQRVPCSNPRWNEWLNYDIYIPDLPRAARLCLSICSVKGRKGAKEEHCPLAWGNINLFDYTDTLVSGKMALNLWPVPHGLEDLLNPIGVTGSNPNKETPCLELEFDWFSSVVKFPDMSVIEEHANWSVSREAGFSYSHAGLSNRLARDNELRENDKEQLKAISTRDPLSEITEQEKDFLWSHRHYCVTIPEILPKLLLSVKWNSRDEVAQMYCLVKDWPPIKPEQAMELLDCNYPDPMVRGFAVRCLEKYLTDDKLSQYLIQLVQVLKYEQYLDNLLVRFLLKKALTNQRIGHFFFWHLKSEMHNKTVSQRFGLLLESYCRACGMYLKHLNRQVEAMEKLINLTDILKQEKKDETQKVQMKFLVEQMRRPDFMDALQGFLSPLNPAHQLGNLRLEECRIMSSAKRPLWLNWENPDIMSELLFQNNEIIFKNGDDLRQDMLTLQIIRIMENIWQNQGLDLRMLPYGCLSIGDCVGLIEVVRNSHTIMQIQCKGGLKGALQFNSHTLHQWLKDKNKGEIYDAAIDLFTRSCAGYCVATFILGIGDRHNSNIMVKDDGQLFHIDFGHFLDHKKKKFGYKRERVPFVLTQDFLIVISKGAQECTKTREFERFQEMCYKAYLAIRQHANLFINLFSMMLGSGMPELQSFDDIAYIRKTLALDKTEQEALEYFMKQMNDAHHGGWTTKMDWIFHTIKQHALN
Sequence of UniProt Q9Y4K4 (whole entry, looked up): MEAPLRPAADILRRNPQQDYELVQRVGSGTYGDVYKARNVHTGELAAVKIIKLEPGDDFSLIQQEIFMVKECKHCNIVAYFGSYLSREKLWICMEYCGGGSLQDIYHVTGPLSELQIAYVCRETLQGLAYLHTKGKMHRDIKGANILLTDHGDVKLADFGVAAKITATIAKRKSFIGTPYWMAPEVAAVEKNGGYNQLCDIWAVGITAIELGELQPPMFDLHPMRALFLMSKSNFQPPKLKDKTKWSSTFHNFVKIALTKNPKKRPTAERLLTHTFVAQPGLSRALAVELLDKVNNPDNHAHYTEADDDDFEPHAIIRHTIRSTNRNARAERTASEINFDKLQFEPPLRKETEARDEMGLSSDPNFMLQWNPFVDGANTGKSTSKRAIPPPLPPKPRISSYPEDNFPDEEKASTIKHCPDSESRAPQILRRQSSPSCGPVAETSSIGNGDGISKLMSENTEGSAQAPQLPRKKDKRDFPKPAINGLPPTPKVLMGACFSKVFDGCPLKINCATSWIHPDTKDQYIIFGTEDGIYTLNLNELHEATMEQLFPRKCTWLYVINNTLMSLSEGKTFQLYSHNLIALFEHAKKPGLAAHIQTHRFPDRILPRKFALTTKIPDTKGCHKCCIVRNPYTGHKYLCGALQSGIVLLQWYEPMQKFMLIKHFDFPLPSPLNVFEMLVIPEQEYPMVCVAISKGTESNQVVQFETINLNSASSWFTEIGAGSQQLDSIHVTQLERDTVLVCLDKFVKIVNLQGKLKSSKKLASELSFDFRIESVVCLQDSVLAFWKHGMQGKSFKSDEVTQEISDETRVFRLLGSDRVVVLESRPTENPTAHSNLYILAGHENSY
Sequence of UniProt Q13546 (whole entry, looked up): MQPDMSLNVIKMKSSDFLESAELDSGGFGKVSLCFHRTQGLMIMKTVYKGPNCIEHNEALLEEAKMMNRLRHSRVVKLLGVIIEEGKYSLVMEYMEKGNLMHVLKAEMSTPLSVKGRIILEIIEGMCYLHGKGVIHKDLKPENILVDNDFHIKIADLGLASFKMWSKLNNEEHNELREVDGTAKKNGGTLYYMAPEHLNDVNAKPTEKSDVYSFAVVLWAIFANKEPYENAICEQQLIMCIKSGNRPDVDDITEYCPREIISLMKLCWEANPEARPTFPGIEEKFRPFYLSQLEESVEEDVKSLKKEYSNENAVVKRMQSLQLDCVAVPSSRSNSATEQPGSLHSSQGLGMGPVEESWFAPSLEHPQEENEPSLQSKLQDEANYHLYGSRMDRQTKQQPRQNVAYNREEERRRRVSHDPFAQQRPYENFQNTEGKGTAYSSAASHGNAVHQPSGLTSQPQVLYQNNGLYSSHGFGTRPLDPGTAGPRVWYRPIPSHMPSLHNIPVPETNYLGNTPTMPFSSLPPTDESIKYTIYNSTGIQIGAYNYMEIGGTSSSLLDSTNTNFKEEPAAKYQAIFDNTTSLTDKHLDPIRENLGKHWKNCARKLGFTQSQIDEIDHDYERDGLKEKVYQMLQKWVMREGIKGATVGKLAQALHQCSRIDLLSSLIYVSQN
Sequence of UniProt Q13177 (whole entry, looked up): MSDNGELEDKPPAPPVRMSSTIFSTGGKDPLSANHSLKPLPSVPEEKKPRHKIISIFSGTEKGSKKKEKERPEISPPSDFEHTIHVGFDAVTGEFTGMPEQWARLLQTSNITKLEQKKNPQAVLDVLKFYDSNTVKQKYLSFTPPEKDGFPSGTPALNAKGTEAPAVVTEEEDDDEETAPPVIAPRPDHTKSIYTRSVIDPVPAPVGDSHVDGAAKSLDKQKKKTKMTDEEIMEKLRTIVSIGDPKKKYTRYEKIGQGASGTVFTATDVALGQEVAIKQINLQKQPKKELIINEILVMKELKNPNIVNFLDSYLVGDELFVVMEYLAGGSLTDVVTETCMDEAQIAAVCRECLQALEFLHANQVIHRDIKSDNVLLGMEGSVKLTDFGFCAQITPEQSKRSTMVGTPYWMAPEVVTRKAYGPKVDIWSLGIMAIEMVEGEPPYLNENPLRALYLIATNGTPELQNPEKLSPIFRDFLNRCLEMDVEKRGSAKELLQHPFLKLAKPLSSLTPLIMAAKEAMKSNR

Set 1 — observed: enzyme activity; action: inhibitor; tested at: 0.5 µM; relative to: control
Target: Insulin receptor (INSR, Homo sapiens, UniProt P06213)
Sequence of UniProt P06213 (whole entry, looked up): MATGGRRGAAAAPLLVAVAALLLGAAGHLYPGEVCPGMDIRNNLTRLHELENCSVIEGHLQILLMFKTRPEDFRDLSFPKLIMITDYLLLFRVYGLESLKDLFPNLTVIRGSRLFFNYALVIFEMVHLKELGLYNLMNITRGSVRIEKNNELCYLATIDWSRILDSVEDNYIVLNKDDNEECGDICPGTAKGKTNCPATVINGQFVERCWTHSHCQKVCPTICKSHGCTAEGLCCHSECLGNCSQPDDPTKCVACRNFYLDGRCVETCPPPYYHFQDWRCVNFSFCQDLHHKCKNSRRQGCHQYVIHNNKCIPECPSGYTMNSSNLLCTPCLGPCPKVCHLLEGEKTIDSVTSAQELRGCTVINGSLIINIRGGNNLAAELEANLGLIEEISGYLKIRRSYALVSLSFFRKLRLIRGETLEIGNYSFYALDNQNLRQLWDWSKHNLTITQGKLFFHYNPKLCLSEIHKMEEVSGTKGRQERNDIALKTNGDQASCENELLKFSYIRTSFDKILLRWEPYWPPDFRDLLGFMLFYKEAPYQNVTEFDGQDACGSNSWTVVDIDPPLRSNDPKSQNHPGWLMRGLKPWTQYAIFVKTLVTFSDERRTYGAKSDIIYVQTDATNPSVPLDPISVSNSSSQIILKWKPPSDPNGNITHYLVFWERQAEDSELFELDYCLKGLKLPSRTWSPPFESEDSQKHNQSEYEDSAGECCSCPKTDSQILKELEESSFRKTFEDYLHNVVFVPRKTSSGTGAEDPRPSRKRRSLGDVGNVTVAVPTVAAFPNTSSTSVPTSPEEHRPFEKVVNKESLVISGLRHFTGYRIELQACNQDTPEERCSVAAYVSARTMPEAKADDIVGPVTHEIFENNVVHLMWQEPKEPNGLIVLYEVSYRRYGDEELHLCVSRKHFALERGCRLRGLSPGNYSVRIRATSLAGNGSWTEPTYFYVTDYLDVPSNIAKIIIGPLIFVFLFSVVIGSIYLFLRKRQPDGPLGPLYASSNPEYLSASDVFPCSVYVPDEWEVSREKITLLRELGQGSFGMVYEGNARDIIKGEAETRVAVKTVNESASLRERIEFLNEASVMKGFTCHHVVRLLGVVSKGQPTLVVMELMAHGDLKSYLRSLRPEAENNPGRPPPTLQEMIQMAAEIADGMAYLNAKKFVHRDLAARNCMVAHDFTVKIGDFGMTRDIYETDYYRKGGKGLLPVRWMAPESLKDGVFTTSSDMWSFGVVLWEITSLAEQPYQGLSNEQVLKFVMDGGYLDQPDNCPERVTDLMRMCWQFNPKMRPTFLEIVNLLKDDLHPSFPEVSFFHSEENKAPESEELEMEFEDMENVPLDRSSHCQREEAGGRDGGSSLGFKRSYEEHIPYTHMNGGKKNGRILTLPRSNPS
Compound	remaining activity [%]
COc1cc2ncnc(Nc3cccc(Cl)c3)c2cc1OC	77.6
c1ccc(-c2cnc(Nc3ccc(OCCN4CCCC4)cc3)s2)cc1	95
Cc1cn(-c2cc(NC(=O)c3ccc(C)c(Nc4nccc(-c5cccnc5)n4)c3)cc(C(F)(F)F)c2)cn1	102
CCN(CC)C(=O)c1ccc(Nc2nc(OCC3CCCCC3)c3[nH]cnc3n2)cc1	92.8
O=C(NC(NC(=S)Nc1ccc(F)c([N+](=O)[O-])c1)C(Cl)(Cl)Cl)C(c1ccccc1)c1ccccc1 (stereo not shown)	100
CCOc1nc(NC(=O)Cc2cc(OC)ccc2OC)cc(N)c1C#N	102
CCN(CC)CCNC(=O)c1c(C)[nH]c(/C=C2\C(=O)Nc3ccc(Cl)cc32)c1C	30.1
N#C/C(=C\c1ccc(O)c(O)c1)C(=O)NCc1ccccc1	93.8
Nc1cccc(-c2cc3c(Oc4cccc(O)c4)ncnc3[nH]2)c1	93.7
c1ccc(-c2[nH]ncc2-c2ccnc3ccccc23)nc1	86.7
CN([C@@H](Cc1ccc(OS(=O)(=O)c2cccc3cnccc23)cc1)C(=O)N1CCN(c2ccccc2)CC1)S(=O)(=O)c1cccc2cnccc12	98.8
O=C1c2ccccc2-c2n[nH]c3cccc1c23	86.9
O=C1C(Cl)=C(N2C(=O)CCC2=O)C(=O)c2ccccc21	105
COc1cc2c(cc1OC)-c1[nH]nc(Nc3cccc(F)c3)c1C2	101
N#Cc1c(NC(=O)c2cccc3ccccc23)sc2c1CCCC2	98.2
Ic1cccc(CSc2nnc(-c3ccncc3)o2)c1	83.5
Cc1cc2ncc(-c3ccccc3)nc2cc1C	94
Cc1nc2cc3nc(-c4cccs4)cnc3cc2n1C	99.9
O=c1cc(-c2cccc3c2Sc2ccccc2S3)oc(N2CCOCC2)c1	105
COc1cc2ncnc(Nc3ccc(O)c(Br)c3)c2cc1OC	92.4
O=C(Nc1cccc(Nc2nccc(Nc3cccc(C(F)(F)F)c3)n2)c1)C1CC1	89.8
CN(C)C[C@H]1CCn2c(c(C3=C(c4cn(C)c5ccccc45)C(=O)NC3=O)c3ccccc32)C1	88
Cn1nc2c3c(cccc31)C(=O)c1ccccc1-2	99.5

Set 2 — observed: cell-free assay; method: competition with immobilised ligand; tested at: 1 µM
Structure (SMILES): Cc1nc(C2CCN(C(=O)c3ccc(OC(F)(F)F)cc3N)CC2)c2ncc(N3CCN(C)CC3)cc2n1
target	remaining binding [%]
MAP4K5 (Homo sapiens, UniProt Q9Y4K4)	100
PAK2 (Homo sapiens, UniProt Q13177)	64
Tyrosine-protein kinase ABL1, non-phosphorylated (ABL1, Homo sapiens, UniProt P00519, H396P)	78
Ribosomal protein S6 kinase alpha-2, C-terminal kinase domain (RPS6KA2, Homo sapiens, UniProt Q15349)	100
DYRK1A (Homo sapiens, UniProt Q13627)	100
EPHB1 (Homo sapiens, UniProt P54762)	95
PIK3CA (Homo sapiens, UniProt P42336, H1047Y)	69
MAP2K7 (Homo sapiens, UniProt O14733)	86
RIPK1 (Homo sapiens, UniProt Q13546)	98
FGFR4 (Homo sapiens, UniProt P22455)	100
CLK4 (Homo sapiens, UniProt Q9HAZ1)	97
DDR1 (Homo sapiens, UniProt Q08345)	100

Set 3 — species: mouse; medium: microsomes or S9; tested at: 2 µM; time: 0.5 h
SMILES	remaining compound
CC(C)(C)Nc1ncc(-c2cnn(C3CCN(C(=O)OC(C)(C)C)CC3)c2)cc1C(=O)O	58.2%
Cc1cc(C)c2nc(Nc3nc(C)c(C)c(O)n3)nc(C)c2c1	4.93%
CC1(C)CC(=O)c2c(O)cc(OCC(=O)NCC3CCC(C(=O)O)CC3)cc2O1 (stereo not shown)	> 100%
Oc1c(Cl)c(Nc2ccccc2)c(O)n1-c1ccccc1	20.2%
O=C1NCCN1C(=O)N1CCCC(Oc2cccnn2)C1 (stereo not shown)	> 99%
COC(=O)CC(c1cnn(C(C)C)c1)c1c(O)cc(C)n(CCc2c[nH]cn2)c1=O (stereo not shown)	91.3%
Cc1ccc2nc3c(cc(C(=O)N4COCC4(C)C)n3Cc3ccccc3)c(=O)n2c1	0.113%
O=C1OC(C(=O)O)Cc2c(F)cc(Br)cc21 (stereo not shown)	83.9%
CCS(=O)(=O)N1CCN(c2ccc(Cl)c(Cl)c2)CC1	66.4%
O=C(O)c1ccc(-c2nc3scc(-c4ccc(F)cc4)c3c(=O)[nH]2)cc1	> 99%

Single results of other studies
Compound	method	species	dose	quantity	result
CC(C)n1cnc(-c2ccc(F)cc2)c1-c1ncc(C(=O)Nc2ccc(N3CCN(C)CC3)cc2)[nH]1	phase 2a clinical trial	patients with idiopathic pulmonary fibrosis	30 mg once daily	patients with immunoglobulins increased TEAE	0%

Repeated from above (set 2):
target	remaining binding [%]
Ribosomal protein S6 kinase alpha-2, C-terminal kinase domain (RPS6KA2, Homo sapiens, UniProt Q15349)	100
EPHB1 (Homo sapiens, UniProt P54762)	95
MAP2K7 (Homo sapiens, UniProt O14733)	86
CLK4 (Homo sapiens, UniProt Q9HAZ1)	97
PAK2 (Homo sapiens, UniProt Q13177)	64
RIPK1 (Homo sapiens, UniProt Q13546)	98
FGFR4 (Homo sapiens, UniProt P22455)	100
